Experimental data collected from several papers.
Every numbered part comes from another study and shows a few of its results, in no order. “And” joins repeats or separate records; there may be more than shown.

Block 1
SMILES: O=C(O)C1(O)Oc2cc(Cl)ccc2N(Cc2ccccc2)C1=O (stereo not drawn)
The inhibition was 1.63% (Arabidopsis thaliana; hypocotyl length; Col-0, seedlings; 6.25 µg/mL).
It gave 6.36% for inhibition (Arabidopsis thaliana; root length; Col-0, seedlings; 6.25 µg/mL).
It gave 2.3% and 2.8% and 2.1% for inhibition (Abutilon theophrasti; fresh weight; 150 g ai/ha, pre-emergence treatment).
The inhibition was 71.5% and 73.2% and 77.9% (Setaria viridis; fresh weight; 150 g ai/ha, pre-emergence treatment).
For Triticum aestivum; fresh weight; soil surface spray, 150 g ai/ha, 21 days, pre-emergence crop safety: inhibition read 13.1% and 12.8%.
Arabidopsis thaliana; root length; Col-0; 3.13 µg/mL, 7 days, seed germination, dark — inhibition: 6%.
The inhibition was 7.73% (Arabidopsis thaliana; root length; Col-0, seedlings; 12.5 µg/mL; relative to: water control).
The inhibition was 1.6% (Arabidopsis thaliana; hypocotyl length; Col-0; 6.25 µg/mL, 7 days, seed germination, dark).
It gave 76.4% and 70.8% and 74.5% for inhibition (Alopecurus aequalis; fresh weight; 150 g ai/ha, pre-emergence treatment).
The inhibition was 45.4% and 46.9% and 45.6% (Echinochloa crus-galli; fresh weight; 150 g ai/ha, post-emergence treatment).
The inhibition was 36.7% (Arabidopsis thaliana; hypocotyl length; Col-0, seedlings; 50 µg/mL).
It gave 0.1% for inhibition (Arabidopsis thaliana; hypocotyl length; Col-0; 3.125 µg/mL, 7 days, seed germination, dark).
For Arabidopsis thaliana; root length; Col-0; 100 µg/mL, 7 days, seed germination, dark: inhibition read 94.9%.
The inhibition was 52.4% (Arabidopsis thaliana; root length; Col-0; 50.0 µg/mL, 7 days, seed germination, dark).
It gave 21.1% for inhibition (Arabidopsis thaliana; hypocotyl length; Col-0, seedlings; 25 µg/mL).
Arabidopsis thaliana; root length; Col-0; 25.0 µg/mL, 7 days, seed germination, dark — inhibition: 17.2%.
Zea mays; fresh weight; soil surface spray, 150 g ai/ha, 21 days, pre-emergence crop safety — inhibition: 4.1% and 3.8% and 3.2%.
The inhibition was -0.143% (Arabidopsis thaliana; hypocotyl length; Col-0, seedlings; 3.125 µg/mL).

Block 2
SMILES: Cc1ccc(O)c(C)c1-c1cnc2[nH]c(-c3cnc(N4CCC5(CC4)CC(N4CCN(c6ccc(NC7CCC(=O)NC7=O)cc6F)CC4)CO5)nc3)cc2c1C#N (stereo not drawn)
PKMYT1: Membrane-associated tyrosine- and threonine-specific cdc2-inhibitory kinase (PKMYT1, Homo sapiens, UniProt Q99640)
Chain of UniProt Q99640 (whole entry, looked up): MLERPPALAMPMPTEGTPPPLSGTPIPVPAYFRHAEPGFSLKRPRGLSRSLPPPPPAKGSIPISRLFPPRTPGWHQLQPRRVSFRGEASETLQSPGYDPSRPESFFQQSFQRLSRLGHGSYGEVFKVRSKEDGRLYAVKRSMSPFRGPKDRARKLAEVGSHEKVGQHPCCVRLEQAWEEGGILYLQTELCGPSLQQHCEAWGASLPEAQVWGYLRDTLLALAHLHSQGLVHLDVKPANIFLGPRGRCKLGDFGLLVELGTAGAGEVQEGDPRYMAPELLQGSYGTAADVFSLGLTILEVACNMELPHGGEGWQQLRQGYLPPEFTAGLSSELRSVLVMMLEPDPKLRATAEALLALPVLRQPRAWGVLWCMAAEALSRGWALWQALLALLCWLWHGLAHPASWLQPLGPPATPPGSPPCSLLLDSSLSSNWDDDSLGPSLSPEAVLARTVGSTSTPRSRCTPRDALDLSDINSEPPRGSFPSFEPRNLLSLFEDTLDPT
The inhibition was 21.7% (PKMYT1; 0.00137 µM).
For PKMYT1; 0.03704 µM: inhibition read 94%.
The inhibition was 100% (PKMYT1; 0.3333 µM).
The inhibition was -31.8% (MDA-MB-157; refers to: CDK1 phospho-Thr14; 0.15 nM).
It gave -9.4% for inhibition (HCC1599; refers to: CDK1 phospho-Thr14; 0.15 nM).
PKMYT1; 0.00046 µM — inhibition: 4.04%.
The inhibition was -24.3% (MDA-MB-157; refers to: CDK1 phospho-Thr14; 1.37 nM).
For PKMYT1; 0.01235 µM: inhibition read 82.2%.
HuCCT-1; refers to: CDK1 phospho-Thr14; 1.37 nM — inhibition: 16.1%.

Block 3 — cell line: U-87 MG; concentration: concentration not given; relative to: DMSO
Compound: CCN1/C(=C/C=C2\CCCC(/C=C/C3=[N+](CC)c4ccccc4C3(C)C)=C2NCCCCCCCCN2CCC(Nc3nc4ccccc4n3Cc3ccc(F)cc3)CC2)C(C)(C)c2ccccc21
refers to: EMP2 mRNA — “log2 fold change”: -1.11.
The “log2 fold change” was 0.913 (refers to: HBEGF mRNA).
The “log2 fold change” was -2.47 (refers to: TCF19 mRNA).
It gave -0.913 for “log2 fold change” (refers to: GALNT18 mRNA).
It gave -4.22 for “log2 fold change” (refers to: RTL3 mRNA).
refers to: PELI2 mRNA — “log2 fold change”: 1.11.
For refers to: LRRC25 mRNA: “log2 fold change” read -2.89.
The “log2 fold change” was -2.09 (refers to: TUBA1B mRNA).
For refers to: PLA2G4C mRNA: “log2 fold change” read 1.8.
refers to: SAMD9L mRNA — “log2 fold change”: -0.885.
refers to: MMP1 mRNA — “log2 fold change”: 4.45.
It gave 1.59 for “log2 fold change” (refers to: SYTL1 mRNA).
refers to: CD55 mRNA — “log2 fold change”: 1.29.
The “log2 fold change” was 1.07 (refers to: USP3 mRNA).
For refers to: KANSL1L mRNA: “log2 fold change” read 0.991.
refers to: GM2A mRNA — “log2 fold change”: -0.815.

Block 4 — cell line: Gaucher fibroblasts L444P/L444P; technique: 4-MUG hydrolysis, cell lysate; concentration: 1 µM; relative to: DMSO
With `Ic1ccc(Nc2nc(NCCCN3CCOCC3)nc(N3CCOCC3)n2)cc1` the GCase activity was 141% and 152% and 148% and 173% and 163%.
`c1ccc(Nc2nc(NCCN3CCOCC3)nc(N3CCOCC3)n2)cc1` gave a GCase activity of 99.9% and 102% and 98% and 95.9% and 100%.
With `Ic1ccc(Nc2nc(NCCN3CCOCC3)nc(N3CCCC3)n2)cc1` the GCase activity was 98.4% and 90% and 97.9% and 101% and 102%.
The GCase activity of `Ic1ccc(Nc2nc(NCCN3CCOCC3)nc(NC3CCCCC3)n2)cc1` is reported as 92.7% and 89.9% and 90.5% and 90.3%.
`Ic1ccc(Nc2nc(N3CCOCC3)nc(N3CCOCC3)n2)cc1` has a GCase activity of 179% and 172% and 162% and 148%.
With `COc1ccc(Nc2nc(NCCN3CCOCC3)nc(N3CCOCC3)n2)cc1` the GCase activity was 97% and 99.9% and 95.2% and 93.2% and 95.6% and 103%.
The GCase activity of `Fc1ccc(Nc2nc(NCCN3CCOCC3)nc(N3CCOCC3)n2)cc1` is reported as 100% and 104% and 96.9% and 91.2% and 94.9% and 98.3%.
With `CCN(CC)c1nc(NCCN2CCOCC2)nc(Nc2ccc(I)cc2)n1` the GCase activity was 95.5% and 88.2% and 96.1% and 106% and 91.5%.

Block 5 — observed: KRAS-RAF interaction; mode: inhibitor; technique: TR-FRET
Structure (SMILES): Cc1ncsc1-c1ccc(C(CO)NC(=O)C2CC(O)CN2C(=O)C(C(C)C)n2cc(-c3ccc(COc4c(-c5c(C)c(F)cc6[nH]ncc56)c(C5CC5)cc5c(N6CC7CC6CN7)nc(OC6CCOCC6)nc45)cc3)nn2)cc1 (stereo not drawn)
KRAS/VHL with RAF: KRAS/VHL, with RAF (Homo sapiens, UniProt P01116+P40337)
KRAS with RAF: GTPase KRas, with RAF (KRAS, Homo sapiens, UniProt P01116)
It gave 68.9% and 66.8% for inhibition (KRAS/VHL with RAF; 3 µM, ternary, KRAS wild type, added: VCB complex).
For KRAS with RAF; 30 nM, binary, added: SOS-mediated nucleotide exchange: inhibition read -3.75% and -7.01%.
For KRAS/VHL with RAF; 10 nM, ternary, KRAS wild type, added: VCB complex: inhibition read 7.13% and 4.35%.
It gave 30.5% and 32.6% for inhibition (KRAS with RAF; 10 µM, binary, added: SOS-mediated nucleotide exchange).
For KRAS/VHL with RAF; 300 nM, ternary, KRAS wild type, added: VCB complex: inhibition read 39.8% and 38.4%.
For KRAS/VHL with RAF; 1 µM, ternary, KRAS wild type, added: VCB complex: inhibition read 58% and 55.3%.
For KRAS with RAF; 100 nM, binary, added: SOS-mediated nucleotide exchange: inhibition read -6.77% and -3.1%.

Block 6 — cell line: MDA-MB-468; observed: cell viability; technique: CellCounting-Lite; concentration: 0.9145 nM; temperature: 37 °C; reading: higher = more viable cells
With `CCn1cnc2c(NCc3nc4cc(Cl)c(Cl)cc4[nH]3)nc(N3CCN(C(C)=O)CC3)nc21` the luminescence signal was 436000 a.u. and 379000 a.u. and 430000 a.u.
For `CCn1cnc2c(NCc3nc4cc(Cl)c(Cl)cc4[nH]3)nc(N3CCN(c4ccccn4)CC3)nc21`, the luminescence signal was 421000 a.u. and 443000 a.u. and 463000 a.u.
For `CCn1cnc2c(NCc3nc4cc(Cl)c(Cl)cc4[nH]3)nc(N3CCN(Cc4ccncc4)CC3)nc21`, the luminescence signal was 481000 a.u. and 434000 a.u. and 553000 a.u.
For `CC(=O)N1CCN(c2nc(NCc3nc4cc(Cl)c(Cl)cc4[nH]3)c3ncn(-c4cnn(C)c4)c3n2)CC1`, the luminescence signal was 493000 a.u. and 533000 a.u. and 480000 a.u.
For `CCn1cnc2c(NCc3nc4cc(Cl)c(Cl)cc4[nH]3)nc(N3CCN(C(=O)[C@H](C)NC(C)=O)CC3)nc21`, the luminescence signal was 489000 a.u. and 507000 a.u. and 474000 a.u.
`Cn1cc(-n2cnc3c(NCc4nc5cc(Cl)c(Cl)cc5[nH]4)nc(N4CCNCC4)nc32)cn1` has a luminescence signal of 483000 a.u. and 570000 a.u. and 592000 a.u.
`CCn1cnc2c(NCc3nc4cc(F)c(F)cc4[nH]3)nc(N3CCn4ncnc4C3)nc21` has a luminescence signal of 426000 a.u. and 450000 a.u. and 407000 a.u.
With `CCn1cnc2c(NCc3nc4cc(Cl)c(Cl)cc4[nH]3)nc(N3CCN(C(=O)CNC(C)=O)CC3)nc21` the luminescence signal was 510000 a.u. and 410000 a.u. and 416000 a.u.
With `CCn1cnc2c(NCc3nc4cc(Cl)c(Cl)cc4[nH]3)nc(N3CCN(C(=O)c4ccncc4)CC3)nc21` the luminescence signal was 354000 a.u. and 319000 a.u. and 361000 a.u.
`CC(=O)N1CCN(c2nc(NCc3nc4cc(Cl)c(Cl)cc4[nH]3)c3ncn(C)c3n2)CC1` has a luminescence signal of 402000 a.u. and 505000 a.u. and 446000 a.u.
`CCn1cnc2c(NCc3nc4ccc(F)c(F)c4[nH]3)nc(N3CCn4ncnc4C3)nc21` has a luminescence signal of 450000 a.u. and 480000 a.u. and 438000 a.u.
The luminescence signal of `CCn1cnc2c(NCc3nc4cc(Cl)c(Cl)cc4[nH]3)nc(N3CCN(S(C)(=O)=O)CC3)nc21` is reported as 580000 a.u. and 528000 a.u. and 442000 a.u.
For `CCn1cnc2c(NCc3nc4cc(Cl)c(Cl)cc4[nH]3)nc(N3CCn4ncnc4C3)nc21`, the luminescence signal was 450000 a.u. and 475000 a.u. and 563000 a.u.
With `CCCCOc1nc(NCc2nc3cc(Cl)c(Cl)cc3[nH]2)c2ncn(CC)c2n1` the luminescence signal was 487000 a.u. and 510000 a.u. and 451000 a.u.
The luminescence signal of `CC(=O)N1CCN(c2nc(NCc3nc4cc(Cl)c(Cl)cc4[nH]3)c3ncn(C(C)C)c3n2)CC1` is reported as 491000 a.u. and 504000 a.u. and 482000 a.u.
The luminescence signal of `CCn1cnc2c(NCc3nc4cc(Cl)c(Cl)cc4[nH]3)nc(N3CCC(NC(C)=O)CC3)nc21` is reported as 450000 a.u. and 449000 a.u. and 466000 a.u.
For `CCn1cnc2c(NCc3nc4cc(Cl)c(Cl)cc4[nH]3)nc(N3CCN(C(=O)c4ccccn4)CC3)nc21`, the luminescence signal was 331000 a.u. and 421000 a.u. and 383000 a.u.
With `CCn1cnc2c(NCc3nc4cc(Cl)c(Cl)cc4[nH]3)nc(N3CCN(C(=O)c4cccnc4)CC3)nc21` the luminescence signal was 411000 a.u. and 366000 a.u. and 317000 a.u.

Block 7 — observed: thermal unfolding; technique: differential scanning fluorimetry; concentration: 5.5 µM; reading: higher = more unfolded
Compound: C[C@@H]1CN(c2ccc(-c3cc(C(=O)NCCOCCOCCOCCOCCOCCOCCNC(=O)/C=C/c4[nH]cc(C(=O)N[C@@H](CC(N)=O)c5ccc(F)c(Cl)c5)c4-c4ccc(Cl)cc4F)ccc3F)cc2NC(=O)c2ccc(F)cc2C(F)(F)F)C[C@H](C)N1C
DCAF1: DDB1- and CUL4-associated factor 1 (DCAF1, Homo sapiens, UniProt Q9Y4B6)
Chain of UniProt Q9Y4B6 (whole entry, looked up): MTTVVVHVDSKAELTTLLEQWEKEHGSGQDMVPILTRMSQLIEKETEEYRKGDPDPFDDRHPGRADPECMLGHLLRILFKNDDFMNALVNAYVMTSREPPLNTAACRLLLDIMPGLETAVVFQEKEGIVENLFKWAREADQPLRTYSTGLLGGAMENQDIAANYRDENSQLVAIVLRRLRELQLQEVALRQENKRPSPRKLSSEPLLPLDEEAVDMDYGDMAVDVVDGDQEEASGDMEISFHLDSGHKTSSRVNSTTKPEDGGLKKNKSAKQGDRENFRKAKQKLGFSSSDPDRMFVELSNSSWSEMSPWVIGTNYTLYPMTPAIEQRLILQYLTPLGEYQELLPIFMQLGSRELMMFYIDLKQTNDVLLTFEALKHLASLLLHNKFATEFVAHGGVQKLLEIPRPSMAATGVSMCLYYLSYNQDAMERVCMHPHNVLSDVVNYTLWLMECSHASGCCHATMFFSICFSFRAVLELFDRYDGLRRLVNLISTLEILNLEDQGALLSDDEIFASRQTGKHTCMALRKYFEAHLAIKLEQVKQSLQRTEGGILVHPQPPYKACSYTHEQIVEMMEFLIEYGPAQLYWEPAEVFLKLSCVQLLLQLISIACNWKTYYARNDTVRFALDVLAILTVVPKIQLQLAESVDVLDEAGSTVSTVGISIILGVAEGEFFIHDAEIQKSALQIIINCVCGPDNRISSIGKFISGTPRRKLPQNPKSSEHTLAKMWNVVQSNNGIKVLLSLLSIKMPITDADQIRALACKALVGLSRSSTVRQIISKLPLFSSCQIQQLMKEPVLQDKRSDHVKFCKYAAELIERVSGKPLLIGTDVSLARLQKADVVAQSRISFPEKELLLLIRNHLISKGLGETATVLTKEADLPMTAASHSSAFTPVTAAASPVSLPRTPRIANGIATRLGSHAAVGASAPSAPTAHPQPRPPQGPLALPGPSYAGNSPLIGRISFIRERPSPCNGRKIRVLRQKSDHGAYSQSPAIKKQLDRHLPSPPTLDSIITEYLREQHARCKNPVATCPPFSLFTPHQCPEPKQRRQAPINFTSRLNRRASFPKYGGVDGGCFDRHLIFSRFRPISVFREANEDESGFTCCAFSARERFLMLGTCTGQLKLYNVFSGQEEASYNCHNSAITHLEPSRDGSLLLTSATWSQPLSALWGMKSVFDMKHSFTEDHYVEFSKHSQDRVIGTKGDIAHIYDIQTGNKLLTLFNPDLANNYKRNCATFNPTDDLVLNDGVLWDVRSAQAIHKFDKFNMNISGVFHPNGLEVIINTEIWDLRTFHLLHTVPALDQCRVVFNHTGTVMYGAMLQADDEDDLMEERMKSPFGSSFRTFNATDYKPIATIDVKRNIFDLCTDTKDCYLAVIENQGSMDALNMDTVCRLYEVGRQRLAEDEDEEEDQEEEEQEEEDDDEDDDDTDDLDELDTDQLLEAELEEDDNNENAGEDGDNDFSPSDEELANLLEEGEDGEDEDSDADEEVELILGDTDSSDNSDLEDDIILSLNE
WDR5: WD repeat-containing protein 5 (WDR5, Homo sapiens, UniProt P61964)
For DCAF1; 57.01 °C: “SYPRO Orange fluorescence” read 34300 a.u.
It gave 63900 a.u. for “SYPRO Orange fluorescence” (WDR5; 83.81 °C).
The “SYPRO Orange fluorescence” was 54400 a.u. (WDR5; 90.41 °C).
For DCAF1; 92.41 °C: “SYPRO Orange fluorescence” read 30500 a.u.
WDR5; 88.61 °C — “SYPRO Orange fluorescence”: 57000 a.u.
It gave 33600 a.u. for “SYPRO Orange fluorescence” (DCAF1; 88.41 °C).
DCAF1; 50.2 °C — “SYPRO Orange fluorescence”: 18200 a.u.
DCAF1; 51.4 °C — “SYPRO Orange fluorescence”: 19500 a.u.
For WDR5; 34.8 °C: “SYPRO Orange fluorescence” read 13900 a.u.
The “SYPRO Orange fluorescence” was 22700 a.u. (WDR5; 68.41 °C).
It gave 11000 a.u. for “SYPRO Orange fluorescence” (DCAF1; 37.8 °C).

Excerpt of the above (block 1):
The inhibition was 1.6% (Arabidopsis thaliana; hypocotyl length; Col-0; 6.25 µg/mL, 7 days, seed germination, dark).
It gave 76.4% and 70.8% and 74.5% for inhibition (Alopecurus aequalis; fresh weight; 150 g ai/ha, pre-emergence treatment).
The inhibition was 45.4% and 46.9% and 45.6% (Echinochloa crus-galli; fresh weight; 150 g ai/ha, post-emergence treatment).
The inhibition was 36.7% (Arabidopsis thaliana; hypocotyl length; Col-0, seedlings; 50 µg/mL).
It gave 0.1% for inhibition (Arabidopsis thaliana; hypocotyl length; Col-0; 3.125 µg/mL, 7 days, seed germination, dark).
For Arabidopsis thaliana; root length; Col-0; 100 µg/mL, 7 days, seed germination, dark: inhibition read 94.9%.
The inhibition was 52.4% (Arabidopsis thaliana; root length; Col-0; 50.0 µg/mL, 7 days, seed germination, dark).
It gave 21.1% for inhibition (Arabidopsis thaliana; hypocotyl length; Col-0, seedlings; 25 µg/mL).
Arabidopsis thaliana; root length; Col-0; 25.0 µg/mL, 7 days, seed germination, dark — inhibition: 17.2%.
